Published values pooled from the literature.
Each numbered part is a random draw from the data of one study; scales do not carry over between parts. Values joined by “and” are separate records of one study, mostly repeats; a detail may differ.
UniProt P9WI81, sequence (whole entry, looked up): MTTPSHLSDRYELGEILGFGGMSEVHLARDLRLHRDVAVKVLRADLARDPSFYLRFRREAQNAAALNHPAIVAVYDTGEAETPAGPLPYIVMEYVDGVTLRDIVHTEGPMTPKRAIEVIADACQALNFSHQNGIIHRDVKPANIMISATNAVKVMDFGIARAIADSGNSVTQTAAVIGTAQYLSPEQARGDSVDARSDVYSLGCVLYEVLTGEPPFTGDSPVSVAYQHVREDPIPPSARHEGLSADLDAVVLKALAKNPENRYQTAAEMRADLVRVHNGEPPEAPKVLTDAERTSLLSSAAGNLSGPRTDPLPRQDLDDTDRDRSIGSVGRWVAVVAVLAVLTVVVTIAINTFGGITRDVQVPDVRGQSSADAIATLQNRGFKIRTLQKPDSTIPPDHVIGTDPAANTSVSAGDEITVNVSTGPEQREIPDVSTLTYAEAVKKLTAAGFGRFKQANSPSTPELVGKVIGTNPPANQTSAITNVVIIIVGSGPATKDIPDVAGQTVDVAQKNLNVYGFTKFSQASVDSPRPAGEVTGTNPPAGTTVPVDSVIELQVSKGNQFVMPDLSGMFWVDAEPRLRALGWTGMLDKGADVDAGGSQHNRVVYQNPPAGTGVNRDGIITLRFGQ
UniProt P28335, sequence (whole entry, looked up): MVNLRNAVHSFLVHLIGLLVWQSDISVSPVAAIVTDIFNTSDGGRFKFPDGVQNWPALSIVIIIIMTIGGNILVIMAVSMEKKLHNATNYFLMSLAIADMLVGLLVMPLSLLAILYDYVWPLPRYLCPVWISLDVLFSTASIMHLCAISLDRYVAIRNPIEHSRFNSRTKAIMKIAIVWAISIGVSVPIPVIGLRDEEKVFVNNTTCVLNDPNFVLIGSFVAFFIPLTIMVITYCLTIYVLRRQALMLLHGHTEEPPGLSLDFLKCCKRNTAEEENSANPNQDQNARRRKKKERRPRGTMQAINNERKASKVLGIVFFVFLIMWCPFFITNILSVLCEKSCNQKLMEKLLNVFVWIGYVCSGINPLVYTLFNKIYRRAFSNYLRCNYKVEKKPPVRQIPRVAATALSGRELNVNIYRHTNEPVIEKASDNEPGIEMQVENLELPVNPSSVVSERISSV
UniProt P61075, sequence (whole entry, looked up): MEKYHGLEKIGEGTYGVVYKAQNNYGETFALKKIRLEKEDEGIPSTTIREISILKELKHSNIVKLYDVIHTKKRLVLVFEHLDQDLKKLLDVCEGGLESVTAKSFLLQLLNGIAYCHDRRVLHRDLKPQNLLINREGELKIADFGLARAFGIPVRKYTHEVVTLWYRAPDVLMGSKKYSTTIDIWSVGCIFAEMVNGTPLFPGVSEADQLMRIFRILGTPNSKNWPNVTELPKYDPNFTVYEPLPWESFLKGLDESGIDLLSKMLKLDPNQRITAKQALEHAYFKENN

Sample 1
Target: Beta-1 adrenergic receptor (ADRB1, Homo sapiens, UniProt P08588)
UniProt P08588, sequence (whole entry, looked up): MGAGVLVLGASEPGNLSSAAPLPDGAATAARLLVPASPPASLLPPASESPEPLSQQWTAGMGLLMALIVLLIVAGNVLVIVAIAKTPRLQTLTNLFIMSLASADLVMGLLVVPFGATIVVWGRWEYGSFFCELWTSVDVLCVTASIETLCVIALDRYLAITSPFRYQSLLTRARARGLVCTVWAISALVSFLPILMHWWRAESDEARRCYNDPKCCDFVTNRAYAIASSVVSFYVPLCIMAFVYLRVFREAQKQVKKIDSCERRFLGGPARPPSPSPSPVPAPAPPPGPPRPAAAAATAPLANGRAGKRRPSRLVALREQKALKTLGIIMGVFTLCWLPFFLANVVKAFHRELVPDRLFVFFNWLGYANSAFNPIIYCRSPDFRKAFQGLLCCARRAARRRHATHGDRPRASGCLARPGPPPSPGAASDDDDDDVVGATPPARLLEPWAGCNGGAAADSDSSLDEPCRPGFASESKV
Mode: agonist
SMILES	Emax [%]
CCCNC(C)Cc1ccc2c(c1)OCO2 (stereo not shown)	70.8
CN1C[C@H](C(=O)N[C@]2(C)O[C@@]3(O)[C@@H]4CCCN4C(=O)[C@H](Cc4ccccc4)N3C2=O)C[C@@H]2c3cccc4[nH]cc(c34)C[C@H]21	64.8
FC(F)(F)c1cccc(C2=CCN(CCc3ccc4ccccc4c3)CC2)c1	45.4
C[C@@H](N)[C@@H](O)c1ccccc1 (racemic)	107
CC(C)NCC(O)c1ccccc1Cl (stereo not shown)	96.7
CC(C)(C)NCC(O)c1cc(Cl)c(N)c(Cl)c1 (stereo not shown)	85.7

Sample 2
Target: Calcium/calmodulin-dependent protein kinase type II subunit alpha (CAMK2A, Homo sapiens, UniProt Q9UQM7)
UniProt Q9UQM7, sequence (whole entry, looked up): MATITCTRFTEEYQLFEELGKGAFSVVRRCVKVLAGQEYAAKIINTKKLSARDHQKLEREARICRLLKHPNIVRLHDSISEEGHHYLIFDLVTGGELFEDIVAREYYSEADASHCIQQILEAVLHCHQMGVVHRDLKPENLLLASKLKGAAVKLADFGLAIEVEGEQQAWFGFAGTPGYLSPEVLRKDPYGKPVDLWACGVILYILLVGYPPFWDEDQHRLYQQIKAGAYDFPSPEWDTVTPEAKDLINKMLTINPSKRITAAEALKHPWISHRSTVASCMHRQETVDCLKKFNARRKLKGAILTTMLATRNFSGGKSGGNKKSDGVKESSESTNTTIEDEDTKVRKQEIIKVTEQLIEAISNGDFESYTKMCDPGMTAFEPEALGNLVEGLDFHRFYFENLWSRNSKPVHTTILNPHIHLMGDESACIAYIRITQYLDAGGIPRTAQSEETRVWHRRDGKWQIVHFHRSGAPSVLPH
Read-out: enzyme activity
Mode: inhibitor
Concentration: 10 µM
SMILES	inhibition [%]
COc1ccc2c3c1O[C@H]1C[C@@H](O)C=C[C@@]31CCNC2	6
CN1[C@@H](CC(=O)c2ccccc2)CCC[C@H]1CC(=O)c1ccccc1	-11
N#Cc1cn([C@@H]2O[C@H](CO)[C@@H](O)[C@H]2O)c2ncnc(N)c12	-22
C=C1C[C@@H]2[C@H](CC[C@]3(C)C(=O)CC[C@@H]23)[C@@]2(C)C=CC(=O)C=C12	-6
Oc1c(Br)cccc1Br	18

Sample 3
Target: DNA polymerase theta, helicase domain (POLQ, Homo sapiens, UniProt O75417)
UniProt O75417, sequence (whole entry, looked up): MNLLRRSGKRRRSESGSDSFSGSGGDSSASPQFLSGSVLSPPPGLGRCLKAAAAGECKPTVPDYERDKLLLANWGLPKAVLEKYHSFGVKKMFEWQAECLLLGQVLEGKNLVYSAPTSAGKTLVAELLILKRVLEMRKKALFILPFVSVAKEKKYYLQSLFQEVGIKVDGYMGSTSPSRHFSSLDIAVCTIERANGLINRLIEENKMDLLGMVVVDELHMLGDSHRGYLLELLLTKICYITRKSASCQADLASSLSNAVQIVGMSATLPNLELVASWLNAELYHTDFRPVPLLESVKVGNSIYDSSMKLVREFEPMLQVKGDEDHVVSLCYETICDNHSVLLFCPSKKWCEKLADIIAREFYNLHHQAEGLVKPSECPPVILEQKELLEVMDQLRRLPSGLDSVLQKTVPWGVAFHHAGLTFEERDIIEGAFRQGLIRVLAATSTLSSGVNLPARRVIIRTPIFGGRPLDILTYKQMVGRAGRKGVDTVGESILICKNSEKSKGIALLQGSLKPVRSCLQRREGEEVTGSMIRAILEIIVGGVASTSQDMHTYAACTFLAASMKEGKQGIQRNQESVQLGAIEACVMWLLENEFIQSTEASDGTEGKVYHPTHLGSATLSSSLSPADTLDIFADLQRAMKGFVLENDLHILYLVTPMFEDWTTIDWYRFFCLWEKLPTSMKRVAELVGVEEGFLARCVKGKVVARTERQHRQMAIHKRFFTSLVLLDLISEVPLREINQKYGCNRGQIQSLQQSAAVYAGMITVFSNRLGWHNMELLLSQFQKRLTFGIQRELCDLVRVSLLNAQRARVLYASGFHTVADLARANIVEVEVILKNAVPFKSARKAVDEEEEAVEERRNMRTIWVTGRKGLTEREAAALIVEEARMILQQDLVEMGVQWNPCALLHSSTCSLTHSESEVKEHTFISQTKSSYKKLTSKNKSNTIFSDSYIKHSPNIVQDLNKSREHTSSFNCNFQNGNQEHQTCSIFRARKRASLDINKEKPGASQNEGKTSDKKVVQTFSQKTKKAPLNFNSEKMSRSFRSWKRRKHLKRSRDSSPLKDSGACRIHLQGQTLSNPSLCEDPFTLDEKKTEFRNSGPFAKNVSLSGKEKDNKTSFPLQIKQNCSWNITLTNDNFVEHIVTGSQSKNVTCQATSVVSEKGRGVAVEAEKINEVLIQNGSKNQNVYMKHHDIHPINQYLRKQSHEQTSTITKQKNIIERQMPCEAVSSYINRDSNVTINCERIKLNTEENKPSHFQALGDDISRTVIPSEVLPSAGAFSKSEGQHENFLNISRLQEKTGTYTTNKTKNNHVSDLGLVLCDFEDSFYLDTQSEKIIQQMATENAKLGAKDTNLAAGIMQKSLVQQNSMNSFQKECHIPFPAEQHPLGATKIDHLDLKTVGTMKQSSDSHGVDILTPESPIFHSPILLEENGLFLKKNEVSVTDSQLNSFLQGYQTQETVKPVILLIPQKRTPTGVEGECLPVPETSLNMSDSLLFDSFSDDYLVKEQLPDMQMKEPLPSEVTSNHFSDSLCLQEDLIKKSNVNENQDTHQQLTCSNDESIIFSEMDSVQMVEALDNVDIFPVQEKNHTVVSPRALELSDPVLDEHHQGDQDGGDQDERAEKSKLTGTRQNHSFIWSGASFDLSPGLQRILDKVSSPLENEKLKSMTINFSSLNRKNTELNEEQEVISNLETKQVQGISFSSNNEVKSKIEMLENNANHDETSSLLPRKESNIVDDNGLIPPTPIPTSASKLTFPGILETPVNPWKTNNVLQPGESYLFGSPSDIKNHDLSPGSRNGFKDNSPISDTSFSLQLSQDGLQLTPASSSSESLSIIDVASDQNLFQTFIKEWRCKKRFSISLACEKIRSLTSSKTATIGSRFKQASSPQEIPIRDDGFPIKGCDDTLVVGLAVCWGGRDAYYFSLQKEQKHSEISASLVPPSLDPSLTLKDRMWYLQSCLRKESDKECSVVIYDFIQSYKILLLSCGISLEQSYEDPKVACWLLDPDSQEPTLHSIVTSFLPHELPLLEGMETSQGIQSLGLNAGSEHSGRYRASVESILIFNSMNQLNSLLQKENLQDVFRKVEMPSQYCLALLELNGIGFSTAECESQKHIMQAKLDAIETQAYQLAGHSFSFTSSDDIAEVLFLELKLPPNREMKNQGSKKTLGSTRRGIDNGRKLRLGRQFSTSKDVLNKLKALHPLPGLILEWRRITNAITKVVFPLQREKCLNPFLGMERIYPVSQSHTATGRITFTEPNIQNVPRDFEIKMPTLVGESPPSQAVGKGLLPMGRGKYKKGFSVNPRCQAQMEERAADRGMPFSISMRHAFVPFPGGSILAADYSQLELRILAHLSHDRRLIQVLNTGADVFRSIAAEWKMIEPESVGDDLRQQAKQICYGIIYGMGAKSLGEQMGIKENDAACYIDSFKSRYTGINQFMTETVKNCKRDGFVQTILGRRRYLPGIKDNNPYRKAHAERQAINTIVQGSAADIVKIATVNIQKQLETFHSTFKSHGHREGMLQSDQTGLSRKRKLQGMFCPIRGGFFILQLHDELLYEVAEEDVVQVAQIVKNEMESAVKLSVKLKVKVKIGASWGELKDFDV
Mode: inhibitor
Concentration: concentration not given
With: with ssDNA
Structure (SMILES)	remaining activity
CCN(CC)C(=O)c1ccc2c(c1)N(Cc1ccc(C(F)(F)F)cc1)C(=O)c1ccccc1S2	53.4% and 53.2%
CSc1ccc(C(c2c(O)c3ccccc3oc2=O)c2c(C)n(C)n(-c3ccccc3)c2=O)cc1 (stereo not shown)	71.1% and 70.2%
COc1cc(C(c2c(O)c3ccccc3oc2=O)c2c(C)n(C)n(-c3ccccc3)c2=O)ccc1OCC(=O)O (stereo not shown)	36.4% and 36.7%
CN(N=O)c1ccc(O)c(O)c1	39.8% and 36.3%

Further values, each from its own experiment
Structure (SMILES)	target or system	test	setting	scale	measurement	value
CC(C)(O)c1cncc(-c2nc3ccc(F)cc3n2C2CC2)c1	HTR2C (Homo sapiens, UniProt P28335)	binding, radioligand binding	10 µM		inhibition	100%
CS(=O)(=O)N1CCCC(NC(=O)[C@H](CCC2CCCCC2)NC(=O)c2ccc(CNC(=O)c3cnc4ccccn34)cc2)C1 (stereo partly shown)	CRK2 (Plasmodium falciparum, UniProt P61075)	cell-free assay, competition with immobilised ligand	0.1 µM		remaining binding	100%
CCCOc1ccc([C@H]2[C@H](C(=O)O)[C@@H](c3ccc4c(c3)OCO4)CN2CC(=O)Nc2c(CC)cccc2CC)cc1	pknB (Mycobacterium tuberculosis, UniProt P9WI81)	cell-free assay, competition with immobilised ligand	1 µM		remaining binding	78%
CN[C@@H]1C[C@H]2O[C@@](C)([C@@H]1OC)n1c3ccccc3c3c4c(c5c6ccccc6n2c5c31)C(=O)NC4	normal-adjacent epithelium patient-derived organoids sample F	CellTiter-Glo	1 µM	relative to: DMSO	viability	0.6%

Some of these lines once more (further values, each from its own experiment):
Structure (SMILES)	target or system	test	setting	scale	measurement	value
CCCOc1ccc([C@H]2[C@H](C(=O)O)[C@@H](c3ccc4c(c3)OCO4)CN2CC(=O)Nc2c(CC)cccc2CC)cc1	pknB (Mycobacterium tuberculosis, UniProt P9WI81)	cell-free assay, competition with immobilised ligand	1 µM		remaining binding	78%
CN[C@@H]1C[C@H]2O[C@@](C)([C@@H]1OC)n1c3ccccc3c3c4c(c5c6ccccc6n2c5c31)C(=O)NC4	normal-adjacent epithelium patient-derived organoids sample F	CellTiter-Glo	1 µM	relative to: DMSO	viability	0.6%
